Experimental data of several laboratories.
± gives the spread as reported.

The plasma concentration of O=C1C[C@@H](c2ccc(O)cc2)Oc2cc(O[C@@H]3O[C@H](C(=O)O)[C@@H](O)[C@H](O)[C@H]3O)cc(O)c21 is reported as 710 nM (human plasma; mean).
CO[C@@H]1[C@@H](OC(N)=O)[C@@H](O)[C@H](Oc2ccc3c(O)c(NC(=O)c4ccc(O)c(CC=C(C)C)c4)c(=O)oc3c2C)OC1(C)C gave an amount permeated of 0.49 nmol (starch gel membrane permeability; Gram-negative envelope surrogate; 200 µM, 10 min, pH 7.4).
The Diarrhea incidence of C[C@@H]1COCCN1c1cc(C2([S@](C)(=N)=O)CC2)nc(-c2cc[nH]c3nccc2-3)n1 is reported as 0% (Japanese advanced solid tumour patients; oral, 160 mg twice daily, CTCAE grade ≥3).
For O=S(=O)(O)Oc1cc(O)cc(/C=C/c2ccc(O)cc2)c1, “samples above LOQ” read 0% (human, cerebrospinal fluid).
Cc1cccc(Cn2cc(CO)c3cnccc32)c1 has an ALT of 71 U/L (male F344 rat, serum; oral, 100 mg/kg/day, 2 days).
With COc1ccc(C(=O)O)c(O)c1 the plasma concentration was 209 nM (human plasma; mean).
For CCc1cc(C(=O)NC)c2nccc(N3CCc4c(cc(Cn5ccnc5)cc4-c4cn(C)nc4C(F)(F)F)C3=O)c2c1, the lung weight was 1.23 ± 0.071 g (Sprague Dawley rat; oral, 100 mg/kg once daily, 7 days).
With N=C(N)NCCNC(=O)C1(Nc2ccccc2)CCN(Cc2ccccc2)CC1 the clearance was 0.9 ± 0.1 L/h (Sprague-Dawley rats (male), plasma; oral, 50 mg/kg).
COc1ccc2[nH]c([S+]([O-])Cc3ncc(C)c(OC)c3C)nc2c1 (stereo not drawn) — result for “R/S ratio change”: 1.47 (human male; oral, dose not given, 2 h, added: fluvoxamine plus voriconazole; relative to: inhibited over baseline).
COc1ccc2c(c1)CN(C(=O)CCN1CCC(Cc3ccccc3)CC1)CC[S@@+]2[O-]: “diastolic blood pressure” 81 ± 15 mmHg (telemetry; conscious dog; intravenous, 8 mg/kg, 4 h).
CO[C@@H]1[C@H](OC(=O)N2CC(CCN3CCOCC3)C2)CC[C@]2(CO2)[C@H]1[C@@]1(C)O[C@@H]1CC=C(C)C: “international normalized ratio” 0.01 ± 0.04 (humans; subcutaneous, 1.8 mg twice weekly for 4 weeks, day 28; relative to: baseline).
For COc1cc2c3c(n(CCCN4CCOCC4)c(=O)c2cc1OC)-c1cc2c(cc1C3=O)OCO2, the clearance was 30 to 50 L/h/m² (Fischer 344 rat, plasma; intravenous bolus, 12 mg/m^2).
Oc1cc(O)cc(/C=C/c2ccc(O)c(O)c2)c1 has a viability of 136% (OCI-Ly1; 1 µM, 120 h).
N#Cc1ccc2c(c1)[C@H]1CCCN(C(=O)c3ccc4[nH]cnc4c3)[C@H]1C2 gave an exposure increase of about 7% (human, plasma; oral, 240 mg, first dose, added: background metformin).
CN[C@H](CC(C)C)C(=O)N[C@H]1C(=O)N[C@@H](CC(N)=O)C(=O)N[C@H]2C(=O)N[C@H]3C(=O)N[C@H](C(=O)N[C@H](C(=O)O)c4cc(O)cc(O)c4-c4cc3ccc4O)[C@H](O)c3ccc(c(Cl)c3)Oc3cc2cc(c3O[C@@H]2O[C@H](CO)[C@@H](O)[C@H](O)[C@H]2O[C@H]2C[C@](C)(N)[C@H](O)[C@H](C)O2)Oc2ccc(cc2Cl)[C@H]1O gave an amount permeated of 0.21 nmol (starch gel membrane permeability; Gram-negative envelope surrogate; 200 µM, 20 min, pH 7.4).
C[C@@]1(c2cc(NC(=O)c3ccc(C#N)cn3)ccc2F)C=CSC(N)=N1 has a dose-normalised AUC(0-inf) of 96.8 ng·h/mL (elderly humans, both sexes, plasma; oral, 150 mg single dose).
With CC(/C=C/C(=O)NO)=C\[C@@H](C)C(=O)c1ccc(N(C)C)cc1 the viability was 0.93% (OCI-Ly1; 1 µM, 120 h).
Under “nucleoside remaining fraction”, CO[C@@H]1[C@H](O)[C@@H](CO)O[C@H]1n1c([N+](=O)[O-])nc2c(=O)[nH]c(N)nc21 is recorded as 0.115 (depurination, RP-HPLC; citrate-phosphate buffer 0.5 mM; 2820 min, pH 2, 37 °C).
For CN1C(=O)[C@@H](NC(=O)c2nnc(Cc3ccccc3)[nH]2)COc2cccnc21, “participants with any serious TEAE” read 0% (phase I single ascending dose; human, male and female; oral, 800 mg, fasted).
For [18F]c1ccc(-c2ccc3c(c2)[nH]c2ccncc23)cn1, the SUV was 2.5 ± 0.635 (ex vivo biodistribution; APP/PS1 mouse, AD model, spleen; intravenous, 30 min).
N#Cc1ccc2c(c1)[C@H]1CCCN(C(=O)c3ccc4[nH]cnc4c3)[C@H]1C2: “total testosterone level” 15.9 nmol/L (human males; 160 mg, day 7).

For quick reference, copied from above:
Under “nucleoside remaining fraction”, CO[C@@H]1[C@H](O)[C@@H](CO)O[C@H]1n1c([N+](=O)[O-])nc2c(=O)[nH]c(N)nc21 is recorded as 0.115 (depurination, RP-HPLC; citrate-phosphate buffer 0.5 mM; 2820 min, pH 2, 37 °C).
For CN1C(=O)[C@@H](NC(=O)c2nnc(Cc3ccccc3)[nH]2)COc2cccnc21, “participants with any serious TEAE” read 0% (phase I single ascending dose; human, male and female; oral, 800 mg, fasted).
